Published values gathered from unrelated publications.
Protocols differ between the studies behind these lines. ± marks the error that the study gave.

| Structure (SMILES) | cell line | test | conditions | scale | quantity | value |
| --- | --- | --- | --- | --- | --- | --- |
| COc1cc(CNC(=O)C[C@H](C)CCC=C(C)C)ccc1OCc1cn(-c2ccc(Cl)c(Cl)c2)nn1 | A549/ATCC | SRB | 10 µM, 48 h |  | growth | 46.5% |
| CCNc1cc2c(cc1C)C1(c3cc(C)c(NCC)cc3O2)c2ccccc2C(=O)N1N=Cc1c[c-]c(-c2ccccn2)cc1.Cc1c(C)c(-c2ccc(-c3ccccc3)cc2)[c-](C)c1C.[Cl-].[Ir+3] | A549 | confocal microscopy, refers to: lysosome colocalisation | 1×IC50, 1 h, together with: LysoTracker Deep Red 500 nM |  | Pearson correlation coefficient | 0.64 |
| COc1cc(CNC(=O)C[C@H](C)CCC=C(C)C)ccc1OCc1cn(-c2cccc([N+](=O)[O-])c2)nn1 | MOLT-4 leukaemia cells | SRB | 10 µM, 48 h |  | growth percent | 80.6% |
| CCCCCC(=O)O[C@H]1[C@H](C)O[C@@H](O[C@H]2[C@H](N(C)C)[C@@H](O)[C@H](O[C@H]3[C@@H](CC=O)C[C@@H](C)[C@@H](O[C@H]4CC[C@H](N(C)C)[C@@H](C)O4)/C=C/C=C/C[C@@H](C)OC(=O)C[C@@H](O)[C@@H]3OC)O[C@@H]2C)C[C@@]1(C)O | GES-1 and HGC-27 | cell growth, CCK-8 | 72 h | baseline: IC50 GES-1 over HGC-27 | selectivity index | 7.42 |
| COc1ccc(CC2COC(=O)C2Cc2ccc3c(c2)OCO3)cc1OC (mixture of isomers) | A2780cis | refers to: multi-caspase | 3.25 µM, 72 h | baseline: untreated | caspase-positive cells | increased |
| Cc1c(C)n(-c2c(C(C)C)cccc2C(C)C)c(=[Se])n1-c1c(C(C)C)cccc1C(C)C.[Cl][Au] | LoVo MDR | MTT |  | baseline: LoVo MDR over LoVo | resistance factor | 1.9 |
| Cc1nn(-c2ccc(S(=O)(=O)N[C@@H](CO)CC(C)C)cc2)c2nn3nnnc3nc12 | HT-29 | DNA damage, alkaline comet | 1 µM, 24 h |  | tail DNA | 28.4 ± 4.77% |
| CC(=O)OC[C@H]1O[C@@H](Sc2sc(C(=O)c3ccc(C)cc3)c(N)c2-c2nc3ccccc3s2)[C@H](OC(C)=O)[C@@H](OC(C)=O)[C@H]1OC(C)=O | OVCAR-8 | SRB | 10 µM, 48 h | baseline: untreated | growth | 73.6% |
| CC(=C(c1ccc(O)cc1)c1ccc(Cl)cc1)c1ccc(Cl)cc1 | SR | cell growth or viability |  |  | GI50 | 740 nM |
| COc1cc(CNC(=O)C[C@H](C)CCC=C(C)C)ccc1OCc1cn(-c2cccc(C(F)(F)F)c2)nn1 | MOLT-4 leukaemia cells | SRB | 10 µM, 48 h |  | growth percent | 84.8% |
| COc1cccc(Cc2cc(CCC(=O)NCCNc3cccc4c(S(=O)(=O)O)cccc34)nn(CC(=O)Nc3ccc(Br)cc3)c2=O)c1 | human neutrophils | calcium flux |  | baseline: antagonist IC50 over agonist EC50 | potency ratio | 10 fold |
| COc1cc(CNC(=O)C[C@H](C)CCC=C(C)C)ccc1O | IGROV-1 ovarian cancer cells | SRB | 10 µM, 48 h |  | growth percent | 89.1% |
| O=C(OCc1cccc(O)c1O)c1ccc(O)c(CO)c1 | mouse aortic smooth muscle cells | Amplex red | dose not given, together with: angiotensin II 24 h |  | H2O2 production | no inhibition |
| CN(C)c1cc2ccccc2c(N)n1 | mouse primary hepatic stellate cells | immunofluorescence | 10 µM, together with: TGF-β1 5 ng/mL for 24 h |  | α-SMA protein level | decreased |
| Cc1ccc2nc(-c3ccc(F)c(F)c3)c(CN3CCN(c4ccccc4)CC3)n2c1 | CRL8155 | cell growth or viability | 48 h |  | EC50 | > 50 µM |
| Cc1ccc(NC(=O)c2c(C)oc3ccc(O)c(CN4CCCCCC4)c23)cc1 | L-363 |  | 10 µM, 72 h |  | senescence-associated β-galactosidase staining | increased |
| O=C(Nc1cc2nc(-c3cccc(C(F)(F)F)c3)cn2cn1)N1CC[C@H](F)C1 | CRL8155 | cell growth or viability | 48 h |  | EC50 | > 50 µM |
| CN[C@@H](C)C(=O)N[C@H]1CN(C(=O)Cc2ccccc2)CC[C@H]2CC[C@@H](C(=O)NCc3ccc(C(F)(F)F)cc3)N2C1=O | SK-OV-3 | apoptosis, annexin V/PI flow cytometry | 24 h |  | minimum effective concentration | 300 to 1000 nM |
| CN(C)c1cccc2c(S(=O)(=O)NCCCCCC(=O)NO)cccc12 | PC-3 | propidium iodide flow cytometry | 1.54 µM |  | cells in S phase | 19.9% |
| CCN(CC)CC(=O)Nc1cccc(-n2cc(-c3ccc4ccc(-c5cn(-c6cccc(NC(=O)CN(CC)CC)c6)nn5)cc4c3)nn2)c1 | RCC4 | qRT-PCR, refers to: HIF-1α | 5 x IC50, 2 h | baseline: untreated | mRNA level | 3.9% |
| COc1cc(CNC(=O)C[C@H](C)CCC=C(C)C)ccc1OCc1cn(-c2ccc(Cl)cc2Cl)nn1 | MDA-MB-231/ATCC | SRB | 10 µM, 48 h |  | growth | 59.7% |
| CC1=CC(C)=[N+]2C1=C(CO)c1c(C)cc(C)n1[B-]2(C)C | RPE-1 | resazurin | 0.1667 h, together with: 510 nm light, 10 min | baseline: dark over light IC50 | phototoxicity index | 76 ± 14 |
| CC(=O)N[C@H]1C(n2cc([C@@](C)(O)c3cccc(F)c3)nn2)O[C@H](COCc2ccccc2)[C@H](OCc2ccccc2)[C@@H]1OCc1ccccc1 (stereo partly drawn) | JEG-3 | qPCR, refers to: p53, HDM2, p21, MIC-1 | 100 µM, 6 h | baseline: vehicle | mRNA level | increased |
| O=Cc1c(O)ccc2ccccc12 | HUVEC | RNA sequencing, refers to: ZNF365 | 75 µM, 24 h | baseline: DMSO | log2 fold change | 4.15 |

| Structure (SMILES) | cell line | test | conditions | scale | quantity | value |
| --- | --- | --- | --- | --- | --- | --- |
| Cc1nn(C)c(O)c1-c1nc2cc(Cl)c(Cl)cc2[nH]c1=O | TF-1 | annexin V | IC25, 24 h |  | apoptotic cells | ~15% |
| COc1ccc([C@@H]2CC(=O)c3c(O)cc(O[C@@H]4O[C@H](CO[C@@H]5O[C@@H](C)[C@H](O)[C@@H](O)[C@H]5O)[C@@H](O)[C@H](O)[C@H]4O)cc3O2)cc1O | A549 | trypan blue exclusion | 50 µg/mL, 48 h |  | cell count | 18300 ± 522 |
| CCC/C(=C\C1=C(C(F)(F)F)C(=O)c2ccccc2C1=O)C(=O)N(CC)CC | NF90-8 cells | HIF1α reporter gene, luciferase reporter | 24 h, 1% oxygen hypoxia |  | EC50 | 5.7 ± 0.6 µM |
| COc1ccc([C@@H]2CC(=O)c3c(O)cc(O[C@@H]4O[C@H](CO[C@@H]5O[C@@H](C)[C@H](O)[C@@H](O)[C@H]5O)[C@@H](O[C@H]5O[C@H](CO)[C@@H](O)[C@H](O)[C@H]5O)[C@H](O)[C@H]4O)cc3O2)cc1O | A549 | cell migration, scratch | 100 µg/mL, 24 h |  | gap closure | 4.24 ± 0.78% |
| COC(=O)C1=CO[C@@H](C)[C@@H]2Cn3ccc4c5ccccc5nc-4c3C[C@H]12 | HEK293 |  | 200 µM |  | growth inhibition | < 50% |
| NC(=O)C[C@H]1CCc2sc3ncnc(O[C@H]4CC[C@H](N5CCOCC5)CC4)c3c21 | human white blood cells |  | concentration not given, 1 h pretreatment, together with: LPS 1 µg/mL or CpG 0.5 µM |  | TNF production | inhibited |
| COc1cc(/C=C/C(=O)/C=C(O)/C=C/c2ccc(OCC(=O)N3CCOCCOCCOCC3)c(OC)c2)ccc1OCC(=O)N1CCOCCOCCOCC1 | COS-7 | cell growth or viability, SRB | 5 µM |  | inhibition | 8.58% |
| O=C(c1ccc2ccccc2c1)c1cn(-c2ccccc2)nc1C1=Nn2c(Cc3nnc4n3N=C(c3nn(-c5ccccc5)cc3C(=O)c3ccc5ccccc5c3)CS4)nnc2SC1 | MCF7 cells | annexin V/PI flow cytometry | IC50, 48 h |  | early apoptotic cells | 19.8% |
| CC1(C)[C@@H](O)CC[C@]2(C)[C@H]3C(=O)C=C4[C@@H]5C[C@@](C)(C(=O)O)CC[C@]5(C)CC[C@@]4(C)[C@]3(C)CC[C@@H]12 | KARPAS-299 | cell growth or viability, MTT | 2 µg/mL |  | inhibition | 0% |
| O=C1CCC(N2C(=O)c3ccc(N4CCC(C(=O)N5CCC(CCN6CCC(CNC(=O)c7cccc(-c8noc(C(F)(F)F)n8)c7)(c7nc(-c8ccccc8)cs7)CC6)CC5)CC4)cc3C2=O)C(=O)N1 (stereo not drawn) | DHL6 | RNA sequencing | 3 µM, 12 h |  | upregulated genes | 442 genes |
| Cc1cccc(NCC(=O)Nc2nc3ccccc3s2)c1 | normal fibroblasts |  | 100 µM |  | inhibition | 17.7% |
| Brc1ccc(Nc2nc(NN=Cc3c[nH]c4ccccc34)nc(N3CCOCC3)n2)cc1 | A549 and SK-BR-3 | autophagy, Western blot | 3 µM, 20 h |  | LC3-II level | increased |
| O=C1OCC2=C1C(c1cccc(Br)c1)C1=C(N2)C(=O)c2ccccc2C1=O (stereo not drawn) | SK-LU-1 cells | annexin V/PI | 0.32 µM, 24 h |  | total apoptotic cells | 21.1% |
| COc1cc(CNC(=O)C[C@H](C)CCC=C(C)C)ccc1OCc1cn(-c2cccc(Cl)c2)nn1 | IGROV-1 ovarian cancer cells | SRB | 10 µM, 48 h |  | growth percent | 95.3% |
| O=S(=O)(CC(F)(F)F)Nc1ccc(Oc2ncccc2-c2ccnc(N[C@H]3CCCNC3)n2)c2ccccc12 | INS1 cells with Dox-inducible IRE1α | immunoblot | 20 µM, together with: 5 ng/mL doxycycline |  | cleaved caspase-3 level | decreased |
| CC(Cc1ccc(Cl)cc1)=C(c1ccc(Cl)cc1)c1ccc(OCCN(C)C)cc1 | SR | cell growth or viability |  |  | GI50 | 990 nM |
| Cc1c(C)c(C)[c-](C)c1C.O=C1c2cccc[n+]2[Ir]([Cl])[N]1CCCCCCCCCC[P+](c1ccccc1)(c1ccccc1)c1ccccc1.[Br-] | SH-SY5Y | SRB | concentration not given, together with: 4-hydroxynonenal 150 µM | baseline: 4-hydroxynonenal alone | cell viability | 1.5 fold |
| CC(C)(C)C(=O)Nc1ccc2[nH]c(CN3CCC(N(CCCN4CCOCC4)CC4OC(n5cnc6c(N)ncnc65)C(O)C4O)CC3)nc2c1 (stereo not drawn) | H460 wild type or R231Q cells | wound healing | 2.5 and 5 µM, 72 h | baseline: untreated | migrating cells | decreased |
| COc1cc(CNC(=O)C[C@H](C)CCC=C(C)C)ccc1OCc1cn(-c2ccc(C#N)cc2)nn1 | 786-0 | SRB | 10 µM, 48 h |  | growth | 96.2% |
| C=C(C)[C@@H]1CC[C@]2(C(=O)OCO/N=[N+](\[O-])N3CCCC3)CC[C@]3(C)[C@H](CC[C@@H]4[C@@]5(C)CC[C@H](OC(C)=O)C(C)(C)[C@@H]5CC[C@]43C)[C@@H]12 | B16-F10 | Annexin V/PI flow cytometry | 1.0 µM, 36 h |  | late apoptotic cells | 14.8% |
| CN1CCN(c2ccc(Nc3ncc(Cl)c(Nc4ccccc4NS(=O)(=O)C4CC4)n3)cc2)CC1 | EGFR C797S mutant | immunofluorescence | concentration not given, 24 h |  | γ-H2AX level | increased |
| O=C(O)CCCOc1ccc(F)cc1-c1cc(-c2ccccc2C(F)(F)F)n(-c2ccccc2)n1 | SH-SY5Y | co-immunoprecipitation | concentration not given, together with: rotenone |  | VDAC1-FABP5 interaction | inhibited |
| COc1cc(CNC(=O)C[C@H](C)CCC=C(C)C)ccc1OCc1cn(-c2ccccc2[N+](=O)[O-])nn1 | 786-0 | SRB | 10 µM, 48 h |  | growth | 83.5% |
| CO[C@@H]1[C@@H](O[C@@H]2O[C@H](C)[C@@H](O[C@H]3C[C@@](C)(O)[C@@H](OC(=O)Cc4ccc(C(C)(C)C)cc4)[C@H](C)O3)[C@H](N(C)C)[C@H]2O)[C@@H](CC=O)C[C@@H](C)[C@@H](O[C@H]2CC[C@H](N(C)C)[C@@H](C)O2)/C=C/C=C/C[C@@H](C)OC(=O)C[C@H]1O | GES-1 and HGC-27 | cell growth, CCK-8 | 72 h | baseline: IC50 GES-1 over HGC-27 | selectivity index | 4.67 |

Excerpt of the above:
| Structure (SMILES) | cell line | test | conditions | scale | quantity | value |
| --- | --- | --- | --- | --- | --- | --- |
| COc1cc(CNC(=O)C[C@H](C)CCC=C(C)C)ccc1OCc1cn(-c2cccc([N+](=O)[O-])c2)nn1 | MOLT-4 leukaemia cells | SRB | 10 µM, 48 h |  | growth percent | 80.6% |
| COC(=O)C1=CO[C@@H](C)[C@@H]2Cn3ccc4c5ccccc5nc-4c3C[C@H]12 | HEK293 |  | 200 µM |  | growth inhibition | < 50% |
| COc1ccc([C@@H]2CC(=O)c3c(O)cc(O[C@@H]4O[C@H](CO[C@@H]5O[C@@H](C)[C@H](O)[C@@H](O)[C@H]5O)[C@@H](O[C@H]5O[C@H](CO)[C@@H](O)[C@H](O)[C@H]5O)[C@H](O)[C@H]4O)cc3O2)cc1O | A549 | cell migration, scratch | 100 µg/mL, 24 h |  | gap closure | 4.24 ± 0.78% |
| CC(=O)N[C@H]1C(n2cc([C@@](C)(O)c3cccc(F)c3)nn2)O[C@H](COCc2ccccc2)[C@H](OCc2ccccc2)[C@@H]1OCc1ccccc1 (stereo partly drawn) | JEG-3 | qPCR, refers to: p53, HDM2, p21, MIC-1 | 100 µM, 6 h | baseline: vehicle | mRNA level | increased |
